Measurements of several laboratories.
± gives the spread as reported.
Organism: herpes simplex virus 1

Structure (SMILES)	test	system	EC50
Cc1ccc(S(=O)(=O)N2C(=O)CSC2c2ccc(Cl)cc2)cc1 (stereo not drawn)	viral cytopathicity	HEL, KOS	> 100 µM
Nc1ncn(CC(O)C(F)(F)F)c(=O)n1 (stereo not drawn)	cytopathic effect	HEL, KOS, TK-deficient, acyclovir-resistant	> 446 µM
O=c1[nH]c(=O)c2ncn(C[C@@H](CO)OCP(=O)(O)O)c2[nH]1	cytopathic effect	HEL, KOS TK- acyclovir-resistant	20 µM
Cc1ccc(S(=O)(=O)N2C(=O)CSC2c2cccc([N+](=O)[O-])c2)cc1 (stereo not drawn)	viral cytopathicity	HEL, KOS	> 100 µM
Nc1nc2c(ncn2COC(CO)CO)c(=O)[nH]1	viral replication	HEL cells, KOS ACV-resistant TK-deficient	58 µM
C[C@H](Cn1cnc2c(=O)[nH]c(=O)[nH]c21)OCP(=O)(O)O	cytopathic effect	HEL, KOS TK- acyclovir-resistant	> 100 µM
Cc1ccc(S(=O)(=O)N2C(=O)CSC2c2ccc([N+](=O)[O-])cc2)cc1 (stereo not drawn)	viral cytopathicity	HEL, KOS TK-deficient acyclovir-resistant	> 100 µM
Nc1nc(O)c2ncn(COC(CO)CO)c2n1	cytopathic effect	HEL, KOS, TK-deficient, acyclovir-resistant	1.1 ± 0.7 µM
Cc1ccc(S(=O)(=O)N2C(=O)CSC2c2ccccc2)cc1 (stereo not drawn)	viral cytopathicity	HEL, KOS TK-deficient acyclovir-resistant	> 100 µM
O=c1[nH]c(=O)c2ncn(C[C@H](CF)OCP(=O)(O)O)c2[nH]1	cytopathic effect	HEL, KOS TK- acyclovir-resistant	> 313 µM
Nc1ncn(C[C@@H](CF)OCP(=O)(O)O)c(=O)n1	cytopathic effect	HEL, KOS, TK-deficient, acyclovir-resistant	> 100 µM
O=c1nc(NC2CC2)c2ncn(CCOCP(=O)(O)O)c2[nH]1	cytopathic effect	HEL, KOS TK- acyclovir-resistant	> 100 µM
NC(=O)c1ncn([C@@H]2O[C@H](CO)[C@@H](O)[C@H]2O)n1	viral replication	HEL, TK- KOS ACV-resistant	125 µM
CCOC(=O)C(C)NP(=O)(COC(CF)CN1CN2C=C(c3ccccc3)NC2=NC1=O)NC(C)C(=O)OCC (stereo not drawn)	cytopathic effect	HEL, KOS, TK-deficient, acyclovir-resistant	> 100 µM
Cc1ccc(S(=O)(=O)N2C(=O)CSC2c2ccccc2F)cc1 (stereo not drawn)	viral cytopathicity	HEL, KOS	> 100 µM

For quick reference, copied from above:
Structure (SMILES)	test	system	EC50
O=c1[nH]c(=O)c2ncn(C[C@H](CF)OCP(=O)(O)O)c2[nH]1	cytopathic effect	HEL, KOS TK- acyclovir-resistant	> 313 µM
Nc1ncn(C[C@@H](CF)OCP(=O)(O)O)c(=O)n1	cytopathic effect	HEL, KOS, TK-deficient, acyclovir-resistant	> 100 µM
